Experimental data of several laboratories.
Every numbered part comes from another study and shows a few of its results, in no order. Changes are numbered by the printed parent chain.

Series 1
Target: RNA binding protein fox-1 homolog 2, RRM domain, GST-SBP tag (RBFOX2, Homo sapiens, UniProt O43251-10, residues 100-194)
Method: RNA Bind-n-Seq
Molecule type: RNA
Sample: in vitro
Tested at: 365 nM
Notes: natural RNA segment, single round, ends assumed
Reference: no-protein control
Direction: higher = stronger binding
Measurement: RBNS enrichment (R)
Construct (chain): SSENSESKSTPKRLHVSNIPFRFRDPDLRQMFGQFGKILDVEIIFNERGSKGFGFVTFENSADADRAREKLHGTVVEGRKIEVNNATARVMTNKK
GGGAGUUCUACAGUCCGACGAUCCCCAGGACCUGAUGUCAGCAGCCUGAGGAUAACAACCCUGUCAGUGAAACGGAAUCUCCACCCCAGACGUAUGAGCAUACAGCAAGACCACAGUUUCCUGGGGAGGCCUGUGGAAUUCUCGGGUGCCAA: 0.709
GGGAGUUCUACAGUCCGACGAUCGCUUUCCUGGGGAGAGAUUAAGCGCUCAUUAAGCAGAGGAGCCCACUUUGAGGAGAGCAAAGCACAAGCUUGCCUGAAGAAUGGAUCCCAACUUCUCCCCGGCAGCUCUGUGGAAUUCUCGGGUGCCAA: 0.725
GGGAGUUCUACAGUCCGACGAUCGCGACGUUUAUUUCAUCUCUUGUUUACGAUUUCACUAGGACUCAGAAACGAGAUCGGGAAGCAGAAAUAUAGUGCAAUAGUGCAACAUCUCUGAAUCCUUUUAAUCUAGAUGGAAUUCUCGGGUGCCAA: 0.291
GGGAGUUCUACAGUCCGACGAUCUCACACUGCUUCUUAUCCUGAACACUUGACACCUUGAGGGUAGAAUAUAGCAUUUGGUUUUUACCUCCUAGCAUAUGCUACUUGGUAUGUGAGGGUUUCAGUACAAAUGCUGGAAUUCUCGGGUGCCAA: 0.604
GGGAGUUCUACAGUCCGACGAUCCCUGCCUGCCGUCCUUGCGUCCACCAUCCCUCUGCCAGGAUGCUGCUCUUGCACCAAGUGCCUUCUGCAUCCCUCAGUCCAUCCGCGUACCAGUAGCCUCCCGUCCUAAUUGGAAUUCUCGGGUGCCAA: 1.46
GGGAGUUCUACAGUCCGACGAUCACUAAGUAAACCAGGCUAGUUUCAAACACAGAUCUGCCUGCCUCUGCCUGCCAAUGCUCCAACUGAAGAGGCGACCUCUCACCCUGUGGCUCCGCCGUUAAGAGUGACCAUGGAAUUCUCGGGUGCCAA: 0.485
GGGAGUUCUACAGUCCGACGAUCCCCAGGGCCCGGGGUCCACAGAGGAUGAGGGUUGUGGCAGGGCCGUCCAUCAGCGCUGACCUUCCGGGGGCCCAGAGCUUCCCAGCCCUGAGUCAAGCUGGCCAUGAACGUGGAAUUCUCGGGUGCCAA: 0.523
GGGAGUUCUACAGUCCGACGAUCGAUGUCCAGAUGUUGUAAAAAAACAAAAACAAAAAACCCAACAGCUGCAGUUCAAUACAACUGCUCUUUUCACACGACUCCCUAAACUCCUUGUAACCUUCUGUAACUAUUGGAAUUCUCGGGUGCCAA: 0.57
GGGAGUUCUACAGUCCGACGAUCUUUGUUAGCCACCUCCCCACCCACAUACAUUUCUGCCAGUGUUCACAAUGACACUCAGCGGUCAUGUCUGGACAUGAGUGCCCAGGGAAUAUGCCCAAGCUAUGCCUUGUUGGAAUUCUCGGGUGCCAA: 0.254
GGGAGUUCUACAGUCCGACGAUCCAGGAAGAAAUGCAAAAUCAUGAAGAUGUUAAUGUUGGUUCUAUUUUGAUUCAACAUCACAAAAAAGAAAAAUUCAGUGGUUCCAGUAAAGAUUUGAAAUUUGUUAAAAUUGGAAUUCUCGGGUGCCAA: 0.741
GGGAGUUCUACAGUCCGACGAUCAUCCGGGAGAUGCUGAUGGCACGAAGGGCCCAGUAGGGAGCCUCUCUGGGAAGCUCUUCCUCCUGCCCCUCCCAUUCCUGGUGGGGGCAGAGGAGUGUCUGCAGGGAAACUGGAAUUCUCGGGUGCCAA: 0.44
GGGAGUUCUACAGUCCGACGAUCGGAUAAAUGUGGUGUUCCUAGCAGGCUGCUUGUUGAAAUUCCAGUGUUUUAAAAAUAUUUUUGUUGUGUUGCAGUCGUGAACAUUUUCCAUUUCUGAUGUUGUCUGCCCAUGGAAUUCUCGGGUGCCAA: 0.848

Series 2
Target: Histone acetyltransferase KAT6A, both winged helices, GST fusion (KAT6A, Homo sapiens, UniProt Q92794, residues 1-181)
Method: protein binding microarray
Molecule type: double-stranded DNA, one strand shown
Sample: in vitro
Tested at: not given
Notes: 8-mer, flanks averaged, mean of 2 arrays, mostly near background
Reference: not given
Direction: higher = stronger binding
Measurement: E-score
Target sequence (chain): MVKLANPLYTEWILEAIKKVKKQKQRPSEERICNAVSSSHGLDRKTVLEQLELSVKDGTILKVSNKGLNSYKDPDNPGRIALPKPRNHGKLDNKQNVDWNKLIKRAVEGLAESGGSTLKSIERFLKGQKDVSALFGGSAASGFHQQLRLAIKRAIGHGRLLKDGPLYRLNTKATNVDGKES
ATCCAATC: -0.113
GTGAGAGA: -0.186
AGATTTGA: 0.0659
ATGAAATG: -0.196
CACCTGTC: -0.0739
GACCGAAA: 0.00571
CACGAGCG: 0.126
CAGAACTC: -0.118
AGGGATAC: -0.131
AATTGATC: -0.0415
GCCAAAAA: -0.12
ATGTAAAT: -0.0668
GAACCAAA: -0.162
CAGCGGCC: 0.232
CGTCTTAC: 0.0445
CAACGCTG: 0.0706
CACGTCAC: -0.037
AACAGTGC: -0.00252
GACGGTGA: 0.107
ATCATTGG: -0.321
ATCAGCCG: 0.207
ACGTGCGA: 0.052
ACAGTCCA: -0.346
CAGTTTCG: -0.0475
ATCTATTG: -0.136

Series 3
Target: NFE2L2, bZIP domain (human)
Method: DHFR protein complementation
Sample: yeast
Notes: single substitutions, most at no-binding floor
Reference: wild-type JUN-FOS pair
Direction: higher = stronger binding
Measurement: binding fitness
Starting sequence: JUN, bZIP domain (human); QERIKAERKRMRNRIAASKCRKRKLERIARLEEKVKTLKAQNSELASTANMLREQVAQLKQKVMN; partner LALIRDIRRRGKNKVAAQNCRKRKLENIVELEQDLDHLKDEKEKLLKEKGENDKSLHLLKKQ
L45F: -1.29 natural log
I28N: -1.47 natural log
T37K: -1.1 natural log
R30E: -1.36 natural log
Q41T: -1.36 natural log
T48N: -1.42 natural log
L45A: -1.47 natural log
S47Q: -0.986 natural log
I28C: -1.54 natural log
Q58H: -1.26 natural log
K34D: -1.62 natural log
L38Q: -1.35 natural log
Q55P: -1.55 natural log
R30A: -1.29 natural log
A29M: -1.58 natural log
E44A: -1.51 natural log
E32S: -1.54 natural log
A29W: -1.44 natural log
E44S: -1.5 natural log
A49T: -1.54 natural log
A57L: -1.46 natural log
T48H: -1.34 natural log
A40C: -1.45 natural log
E54F: -1.44 natural log
A49Q: -1.53 natural log

Series 4
Target: Prothrombin, mature alpha-thrombin (F2, Homo sapiens, UniProt P00734)
Method: aptamer microarray, sandwich
Molecule type: DNA with 2'F-ANA
Sample: in vitro
Tested at: 200 nM
Notes: whole 15-mer aptamer, many near background
Added: Cy3 exosite-II aptamer, 400 nM
Direction: higher = stronger binding
Measurement: mean fluorescence intensity
Sequence: GGTTGGTGTGGTTGG
2'F-ANA at 1 2 3 4 5 10 11 12 13: 49.3 a.u.
2'F-ANA at 3 6 11 12 15: 1110 a.u.
2'F-ANA at 4 6 7 8 10 12 13 15: 90.1 a.u.
2'F-ANA at 2 4 5 9 11 12 13 15: 71.5 a.u.
2'F-ANA at 1 2 3 7 8 9 11 12 15: 381 a.u.
2'F-ANA at 1 2 3 4 5 7 8 9 10 11 13 15: 49.6 a.u.
2'F-ANA at 1 2 4 6 10 11 13 14: 76.7 a.u.
2'F-ANA at 1 2 4 10 11 12 13 14 15: 48.1 a.u.
2'F-ANA at 5 8 10 11 14: 42.1 a.u.
2'F-ANA at 1 3 6 9 12 14 15: 108 a.u.
2'F-ANA at 1 2 3 4 5 9 11 12 15: 160 a.u.
2'F-ANA at 1 2 5 6 8 9 10 12 13 15: 52.1 a.u.
2'F-ANA at 2 3 5 8 10 13: 60.7 a.u.
2'F-ANA at 1 2 3 4 8 10 11 15: 64 a.u.
2'F-ANA at 2 3 7 8 9 10 11 12 13 15: 394 a.u.
2'F-ANA at 1 3 4 5 6 7 8 11 13: 56.4 a.u.
2'F-ANA at 2 3 4 5 6 8 10 11 12 13: 52.8 a.u.
2'F-ANA at 1 2 3 4 5 8 11 12 13 14 15: 52.9 a.u.
2'F-ANA at 3 5 6 7 10 13: 59.1 a.u.
2'F-ANA at 1 3 4 6 7 8 10 11 12 15: 76.7 a.u.
2'F-ANA at 1 5 7 8 9 10 12 14: 50.4 a.u.
2'F-ANA at 6 8 13 14 15: 169 a.u.
2'F-ANA at 1 3 8 10 11 12 13 15: 121 a.u.
2'F-ANA at 8 12 14: 291 a.u.
2'F-ANA at 5 6 8 9 11 14: 56.7 a.u.

Series 5
Target: ABI1, truncated, D143A, DHFR fusion (Arabidopsis thaliana, UniProt P49597)
Method: DHFR PCA, dose-response
Sample: yeast
Notes: Hill fit, mean, not affinity
Added: (+)-ABA, dose series
Direction: lower = more sensitive
Measurement: ABA EC50
Starting sequence: PYL1, truncated, DHFR fusion (Arabidopsis thaliana, UniProt Q8VZS8); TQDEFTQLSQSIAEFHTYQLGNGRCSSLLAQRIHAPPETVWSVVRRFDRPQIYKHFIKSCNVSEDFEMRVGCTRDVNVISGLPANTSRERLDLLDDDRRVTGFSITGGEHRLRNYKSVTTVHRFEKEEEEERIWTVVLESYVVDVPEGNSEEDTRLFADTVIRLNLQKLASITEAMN
D96Y: 250 µM
M176L: 2.52 µM
L138A: 432 µM
S80R: 145 µM
K58N: 8.83 µM
S63H: 2.77 µM
Q51M: 26.7 µM
E128M: 2.89 µM
M68T: 8.38 µM
S27Y: 226 µM
T154V: 2.37 µM
Q19W: 12.9 µM
Q51F: 39.9 µM
A175G: 1.23 µM
T119L: 5.13 µM
T73A: 16 µM
P37I: 6 µM
V145F: 243 µM
G148S: 11.4 µM
E64H: 2.66 µM
D97Y: 5.44 µM
R90S: 29.2 µM

Series 6
Target: CCNA1, cyclin fold, Cln2 fusion (human)
Method: yeast growth competition, sequencing
Sample: yeast
Notes: weak parent motif
Reference: not given
Direction: higher = stronger binding
Measurement: normalised enrichment score
Starting sequence: HIRA docking peptide (human); SLSKRKLELEVET
SLSKRALELEVET [K6A]: 0.336
SLSKKKLEFEVET [R5K L9F]: -0.065
SLSKRKLELEVAT [E12A]: 0.156
ALSKRKLELEVET [S1A]: 0.153
SLSKRKLEFEVET [L9F]: 0.562
SLSKRKLELAVET [E10A]: -0.0295
SLSKAKLELEVET [R5A]: 0.331
SLSKAKAELEVET [R5A L7A]: 0.189
SASKRKLELEVET [L2A]: 0.24
SLSARKLELEVET [K4A]: -0.0741

Repeated from above (series 5):
Q51F: 39.9 µM
T119L: 5.13 µM
E64H: 2.66 µM
M68T: 8.38 µM
D96Y: 250 µM
S27Y: 226 µM
T154V: 2.37 µM
A175G: 1.23 µM
E128M: 2.89 µM
T73A: 16 µM
P37I: 6 µM
